Measured values from different studies.
Lines come from different studies, so protocols differ. ± marks the error that the study gave.

| Compound | tested on | assay | system | conditions | how to read | measurement | value |
| --- | --- | --- | --- | --- | --- | --- | --- |
| CN1CCN(c2cnc3c(cc(C(=O)NCc4ccc(Cl)cc4)c(=O)n3CC(=O)N3CC(C)(F)C3)n2)C1=O | human cytomegalovirus | GFP reporter | AD169-GFP | retest | reference: CC50 over EC50 | selectivity index | > 299 |
| COc1c(O)c(C)cc2c1C(=O)c1c(cc(O)c(O)c1O)C2=O | HepaRG co-cultured with HK-2 | MTT | – | 266.67 µM, 24 h | reference: untreated control | cell viability | 62.1 ± 8.65% |
| COc1cc2c(NC3CCN(C(C)C)CC3)nc(C3CCCCC3)nc2cc1OCCCN1CCCC1 | OCI-Ly1 | – | – | 0.1 µM, 120 h | – | viability | 204% |
| Clc1ccc(C(c2c[nH]c3ccccc23)c2c[nH]c3ccccc23)cc1 | COS-7 | – | – | 30 µM, 24 h, 0.1% DMSO, unit not given | reference: vehicle control | confluence | 0.28 ± 0.03 |
| CCc1cc(C(=O)NC)c2nccc(N3CCc4c(cc(Cn5ccnc5)cc4-c4cn(C)nc4C(F)(F)F)C3=O)c2c1 | – | – | Sprague Dawley rat, male, plasma | oral, 50 mg/kg once daily, 7 days, toxicokinetic satellite group | – | AUC(0-last) | 14400 ng·h/mL |
| Cc1cc(Nc2ccc(S(F)(F)(F)(F)F)cc2)n2nc(C(C)(F)F)nc2n1 | Plasmodium vivax | 12-lead ECG | malaria patients | oral, 800 mg, increase above 30 ms | – | patients with QTcB increase | 0% |
| COc1cc2c(c(OC)c1OC)C(=O)c1c(cc(C)c(O)c1OC)C2=O | HepaRG co-cultured with HK-2 | MTT | – | 16.67 µM, 48 h | reference: untreated control | cell viability | 85.5 ± 6.91% |
| O=C(O)C[C@H](O)C[C@H](O)/C=C/c1c(C2CC2)nc2ccccc2c1-c1ccc(F)cc1 | COS-7 | WST-8 | – | 10 µM, 24 h, 0.1% DMSO, unit not given | reference: vehicle control | metabolic activity | 0.88 ± 0.02 |
| CNCCN1CCN(c2cnc3c(cc(C(=O)NCc4ccc(Cl)cc4)c(=O)n3CC(=O)N3CC(C)(F)C3)n2)C1=O.Cl | human cytomegalovirus | – | MRC-5, AD169-GFP | – | reference: CC50 over EC50 | selectivity ratio | 113 |
| COCCOCc1ccc(-c2cc3onc(-c4ccccc4)c3c(=O)n2C)cc1 | COS-7 | – | – | 10 µM, 24 h, 0.1% DMSO, unit not given | reference: vehicle control | necrotic cells | 1.02 ± 0.16 |
| COc1cc2c(c(O)c1OC)C(=O)c1c(cc(C)c(O[C@@H]3O[C@H](CO)[C@@H](O)[C@H](O)[C@H]3O)c1OC)C2=O | HepaRG co-cultured with HK-2 | MTT | – | 33.33 µM, 24 h | reference: untreated control | cell viability | 93.4 ± 22.4% |
| CC(C)C[C@H](NC(=O)C[C@H](O)[C@H](CC(C)C)NC(=O)[C@H](Cc1c[nH]cn1)NC(=O)CNC(=O)[C@@H](NC(=O)[C@H](C)NC(=O)[C@H](Cc1c[nH]c2ccccc12)NC(=O)[C@H](CCC(N)=O)NC(=O)[C@@H](Cc1ccccc1)NC(=O)COCCOCCNC(=O)CCC(C(=O)O)N1CCN(CC(=O)O)CCN(CC(=O)O)CCN(CC(=O)O)CC1)C(C)C)C(N)=O (stereo partly drawn) [lutetium-177 labelled] | – | – | BALB/c nu/nu mice, female, lumbar lymph node metastases | intravenous, 50 pmol, 1 h | – | tissue uptake | 24 ± 18 %ID/g |
| CC[C@H](CO)N(CCN(N=O)[C@H](CC)CO)N=O | Salmonella typhimurium | plate incorporation | TA1535, water | 5000 µg/plate, without S9 test 2 | – | revertant colonies per plate | 29 ± 9 |
| COc1cc2c(c(O)c1OC)C(=O)c1c(cc(C)c(O)c1OC)C2=O | HepaRG co-cultured with HK-2 | MTT | – | 133.33 µM, 24 h | reference: untreated control | cell viability | 71.2 ± 4.9% |
| CN1C(C(=O)Nc2ccccn2)=C(O)c2sc(Cl)cc2S1(=O)=O | COS-7 | – | – | 100 µM, 24 h, 0.1% DMSO, unit not given | reference: control | necrosis | 0.57 ± 0.29 |
| O=C([C@@H](Cc1cccc(C(F)(F)F)c1)NS(=O)(=O)c1cc(F)c2c(c1)CCNC2)N1CCCC1 | OCI-Ly1 | – | – | 0.5 µM, 120 h | – | viability | 117% |
| COc1cccc2c1C(=O)c1c(O)c3c(c(O)c1C2=O)C[C@@](O)(C(=O)CO)C[C@@H]3O[C@H]1C[C@H](N)[C@H](O)[C@H](C)O1 | COS-7 | WST-8 | – | 100 µM, 24 h, 0.1% DMSO, unit not given | reference: control | metabolic activity | 0.7 ± 0.33 |
| O=C(O)c1cc(O)c2c(c1)C(=O)c1cccc(O)c1C2=O | HepaRG co-cultured with HK-2 | MTT | – | 266.67 µM, 24 h | reference: untreated control | cell viability | 58.3 ± 4.87% |

Repeated from above:
| Compound | tested on | assay | system | conditions | how to read | measurement | value |
| --- | --- | --- | --- | --- | --- | --- | --- |
| CCc1cc(C(=O)NC)c2nccc(N3CCc4c(cc(Cn5ccnc5)cc4-c4cn(C)nc4C(F)(F)F)C3=O)c2c1 | – | – | Sprague Dawley rat, male, plasma | oral, 50 mg/kg once daily, 7 days, toxicokinetic satellite group | – | AUC(0-last) | 14400 ng·h/mL |
| COc1cccc2c1C(=O)c1c(O)c3c(c(O)c1C2=O)C[C@@](O)(C(=O)CO)C[C@@H]3O[C@H]1C[C@H](N)[C@H](O)[C@H](C)O1 | COS-7 | WST-8 | – | 100 µM, 24 h, 0.1% DMSO, unit not given | reference: control | metabolic activity | 0.7 ± 0.33 |
| O=C([C@@H](Cc1cccc(C(F)(F)F)c1)NS(=O)(=O)c1cc(F)c2c(c1)CCNC2)N1CCCC1 | OCI-Ly1 | – | – | 0.5 µM, 120 h | – | viability | 117% |
